Measured values of several laboratories.
Protocols differ between the studies behind these lines. ± marks the error that the study gave.

Compound = O=C(O)CNC(=O)c1c(O)c2ccccc2n(OCC2CC2)c1=O; test system = human; setting = oral, 150 mg single dose, fed, high-fat breakfast; Tmax = 5 h
Compound = COC(=O)c1ccc2c(c1)NC(=O)/C2=C(\Nc1ccc(N(C)C(=O)CN2CCN(C)CC2)cc1)c1ccccc1; test system = human, mild liver impairment, plasma; setting = oral, 150 mg twice daily, steady state; Tmax = 3.48 h
Compound = CC(=O)c1c(C)c2cnc(Nc3ccc(N4CCNCC4)cn3)nc2n(C2CCCC2)c1=O; test system = human; setting = oral, 50 mg/m^2 single dose, day 1; Tmax = 6.6 ± 2 h
Compound = N[C@]1(C(=O)O)[C@H]2[C@@H](C[C@@H]1F)[C@@H]2C(=O)O; test system = human, both sexes, fed, plasma; setting = oral, 40 mg, day 14, multiple ascending dose; Tmax = 3.5 h
Compound = NC1(c2ccc(-c3nc4ccn5c(=O)[nH]nc5c4cc3-c3ccccc3)cc2)CCC1; test system = human; setting = oral, 90 mg, expansion, reduced dose, with: dinaciclib 9 mg/m^2; Tmax = 4.75 h
Compound = O=C(c1ccc(OCCN2CCCCC2)cc1)c1c(-c2ccc(O)cc2)sc2cc(O)ccc12; test system = healthy humans, plasma; setting = oral, 60 mg, with: acute green tea; Tmax = 1.5 h
Compound = O=C(Cc1cccc(OC(F)(F)F)c1)Nc1ccc(CCCCc2nnc(NC(=O)Cc3ccccn3)s2)nn1; test system = human patients, plasma; setting = oral, 400 mg three times daily fasted, cycle 1 day 15 steady state; Tmax = 1 h
Compound = C[C@@H](c1nc(-c2ccc(C#N)cc2)cs1)[C@](O)(Cn1cncn1)c1cc(F)ccc1F; test system = human, both sexes, plasma; setting = oral, 200 mg single dose, median, with: ketoconazole 200 mg BID; Tmax = 3 h
Compound = CC(C)(C)OC[C@@H]1C(=O)NCCN1C(=O)C[C@H](N)Cc1cc(F)c(F)cc1F; test system = human, male, plasma; setting = oral, single dose, fixed-dose combination with metformin, fed high-fat, median; Tmax = 5 h
Compound = O=C(CCCCCCC(=O)Nc1ccccc1)NO; test system = human, cycle 1 day 2, plasma; setting = oral, 400 mg, with: bortezomib; Tmax = 1 ± 0.9 h
Compound = CC(C)NC[C@@H](C(=O)N1CCN(c2ncnc3c2[C@H](C)C[C@H]3O)CC1)c1ccc(Cl)cc1; test system = human, Healthy hepatic function, plasma; setting = oral, 100 mg single dose, NCI classification, median; Tmax = 1 h
Compound = C=CC(=O)N(C)CCOc1c(N)ncnc1-c1cc(F)cc(NC(=O)c2ccc(C3CC3)cc2F)c1C; test system = healthy humans, fasted, whole blood; setting = oral, 60 mg single dose, median; Tmax = 0.767 h
Compound = COC(=O)c1ccc2c(c1)NC(=O)/C2=C(\Nc1ccc(N(C)C(=O)CN2CCN(C)CC2)cc1)c1ccccc1; test system = healthy human controls matched to Child-Pugh B, plasma; setting = oral, 100 mg single dose, median; Tmax = 3 h
Compound = Cc1[nH]c2ccccc2c1CCNCc1ccc(/C=C/C(=O)NO)cc1; test system = human, plasma; setting = oral, 20 mg, fed, normal breakfast; Tmax = 2.5 h
Compound = Cc1[nH]c(/C=C2\C(=O)Nc3ccccc32)c(C)c1CCC(=O)O; test system = human patients; setting = oral, 200 mg/m^2 twice daily, after meal, dose 55; Tmax = 2 ± 0.866 h
Compound = CCOc1ccc(Cc2cc([C@@H]3S[C@H](CO)[C@@H](O)[C@H](O)[C@H]3O)c(OC)cc2C)cc1; test system = human, plasma; setting = oral, 5 mg/day, day 7, multiple dose before breakfast; Tmax = 0.625 ± 0.231 h
Compound = CCOc1cc([C@@H](CS(C)(=O)=O)N2C(=O)c3cccc(NC(C)=O)c3C2=O)ccc1O[C@@H]1O[C@H](C(=O)O)[C@@H](O)[C@H](O)[C@H]1O; test system = healthy human controls, plasma; setting = oral, 30 mg apremilast, matched to moderate impairment; Tmax = 5 h
Compound = NC(=O)N1CCC(CC(=O)N2CCC([C@H]3c4ncc(Br)cc4CCc4cc(Cl)cc(Br)c43)CC2)CC1; test system = human, plasma; setting = oral, 150 mg twice daily, cycle 2 day 15, multiple dose, median, with: gemcitabine 750 mg/m2; Tmax = 8 h
Compound = CNC(=O)c1ccc(-c2cnc3ncc(Cc4ccc5ncccc5c4)n3n2)cc1F; test system = human; setting = oral, 400 mg twice daily, tablets; Tmax = ~2 h
Compound = CCCC[C@H](NC(C)=O)C(=O)N[C@H]1CCC(=O)NC[C@@H](C(=O)N[C@@H](Cc2c[nH]c3ccccc23)C(N)=O)NC(=O)[C@H](CCCNC(=N)N)NC(=O)[C@@H](Cc2ccccc2)NC(=O)[C@H](Cc2c[nH]cn2)NC1=O; test system = healthy human, both sexes, plasma; setting = subcutaneous, 1.0 mg once daily, day 1, median; Tmax = 0.5 h
Compound = COc1ccnc(C[S+]([O-])c2nc3ccc(OC(F)F)cc3[nH]2)c1OC (centres unmarked); assay = HPLC; test system = human CYP2C19 ultra-rapid metabolizers, plasma; setting = oral, 40 mg/day, day 5, esomeprazole; Tmax = 4 h
Compound = CN(Cc1cnc2nc(N)nc(N)c2n1)c1ccc(C(=O)N[C@@H](CCC(=O)O)C(=O)O)cc1; test system = human, both sexes, plasma; setting = oral, 20 mg, day 1, alone, median; Tmax = 1.5 h
Compound = CCOc1ccc(Cc2cc([C@]34OC[C@](CO)(O3)[C@@H](O)[C@H](O)[C@H]4O)ccc2Cl)cc1; test system = human, fasted, plasma; setting = oral, dose not given, range of medians, monotherapy and fixed-dose combinations; Tmax = 1 to 1.5 h
Compound = COc1cc(Nc2ncc3c(n2)-c2ccc(Cl)cc2C(c2c(F)cccc2OC)=NC3)ccc1C(=O)O; test system = human, phase I; setting = oral, 30 mg twice daily, with: combination with other drug; Tmax = 1.3 ± 1.6 h
Compound = Cc1ccc(NC(=O)c2ccc(CN3CCN(C)CC3)cc2)cc1Nc1nccc(-c2cncc(-c3oncc3C)c2)n1; test system = older healthy human adults, plasma; setting = oral, 250 mg single dose, fed, mean; Tmax = 5 h
Compound = COc1c(N2C[C@@H]3CCCN[C@@H]3C2)c(F)cc2c(=O)c(C(=O)O)cn(C3CC3)c12; test system = human; setting = oral, 400 mg single dose, median; Tmax = 1 h
Compound = Cc1ccc(NC(=O)c2ccc(CN3CCNCC3)cc2)cc1Nc1nccc(-c2cccnc2)n1; test system = human patients, plasma; setting = oral, 400 mg/day of imatinib, day 14 of cycle 1, with: IL-2 6 MIU/day days 10-14; Tmax = 3.8 h
Compound = Cc1ccsc1C(=O)Nc1cc(CN2CCN(C(=O)CO)CC2)ccc1/C=C/c1n[nH]c2ccccc12; test system = human patients, plasma; setting = oral, 50 mg/day, day 1; Tmax = 1.86 ± 0.73 h
Compound = CN(Cc1cnc2nc(N)nc(N)c2n1)c1ccc(C(=O)N[C@@H](CCC(=O)O)C(=O)O)cc1; test system = human, plasma; setting = oral, day 8, median, with: isavuconazole co-administration; Tmax = 1 h
Compound = CCOc1c([C@H](C)n2nc(C)c3c(N)ncnc32)cc(Cl)c(F)c1[C@@H]1CNC(=O)C1; test system = human; setting = oral, 10 mg, alone or with itraconazole; Tmax = ≤ 1 h
Compound = CC(C)(Sc1ccncc1-c1ccc(C#N)c2ccccc12)C(=O)O; test system = healthy human males, plasma; setting = oral, 10 mg once daily, day 14, with: febuxostat 40 mg once daily; Tmax = 4 h
Compound = O=C(c1nc2n(n1)[C@H](c1ccccc1)C[C@@H]2F)C1CC1; test system = human; setting = oral, 75 mg, single dose, high-fat meal, median; Tmax = 4 h
Compound = COc1cc2c(Oc3ccc4[nH]c(C)cc4c3F)ncnc2cc1OCCCN1CCCC1; test system = human patients, plasma; setting = oral, 30 mg, cycle 2 day 1, median, with: pemetrexed; Tmax = 4 h
Compound = COc1ccc2nc([S@@+]([O-])Cc3ncc(C)c(OC)c3C)[nH]c2c1; assay = HPLC; test system = human CYP2C19 poor metabolizers, plasma; setting = oral, 40 mg/day, day 5, pantoprazole; Tmax = 2.6 ± 1.34 h
Compound = CNc1nc(Nc2ccc(-n3cnc(C)n3)c(OC)c2)nc2c1CC[C@H]2c1ccc(F)cc1; test system = human; setting = oral, 100 mg once daily, day 14, multiple ascending dose, median; Tmax = 8.5 h
Compound = COCCCCn1c(C(=O)N(CC(C)C)[C@@H]2CNC[C@H](C(=O)N3CCOCC3)C2)nc2ccccc21; test system = human, elderly, plasma; setting = oral, 80 mg once daily, day 7, median; Tmax = 2 h
Compound = C[C@H]1C[C@@H]2[C@H]([C@@H](O)C[C@@]3(C)[C@H]2CC[C@]3(O)C(=O)CO)[C@@]2(C)C=CC(=O)C=C12; assay = refers to: free compound; test system = human, plasma; setting = oral, once daily, 32 mg, day 4, median; Tmax = 2 h
Compound = Nc1nc2[nH]cc(CCc3ccc(C(=O)N[C@@H](CCC(=O)O)C(=O)O)cc3)c2c(=O)[nH]1; test system = human cancer patients, plasma; setting = intravenous, dose not given, cycle 2 day 1, with: regorafenib for 21 days; Tmax = 0.17 h
